Experimental data collected from several papers.
“And” joins repeats or separate records; there may be more than shown. ± gives the spread as reported.

COc1cc2c(NC3CCN(C(C)C)CC3)cc(N3CCOCC3)nc2cc1OCCCN1CCCC1 — log2 fold change (TMT proteomics, refers to: NPTXR; 5xFAD mice, hippocampus; dose not given; reference: wild-type mice): 0.0867
O=[N][Fe]1([N]=O)[S](CCO)[Fe]([N]=O)([N]=O)[S]1CCO — serum total cholesterol (aged C57BL/6JNarl mice, Western diet, serum; oral, 2.65 mg/kg daily, 16 weeks): 166 ± 39.8 mg/dL
COc1ccc(NC(=O)c2ccc3[nH]c(-c4ccc(N(C)C)cc4)nc3c2)cn1 — tumour volume (CT26, BALB/c mice, subcutaneous syngeneic graft; dose not given, day 11): 533 mm3 and 71.9 mm3 and 65.4 mm3 and 630 mm3 and 599 mm3
CC(CCC(=O)NCc1ccc(C(=O)NO)cc1)C1CCC2C3C(O)CC4CC(O)CCC4(C)C3CCC12C (centres unmarked) — relative abundance (refers to: Tauro-conj; PCK rat (Pkhd1 mutant), peripheral blood; oral gavage, dose not given, 5 months; reference: total bile acids): 39%
O=C([O-])CN1CCN(CC(=O)[O-])CCN(CC(O)CN(CC(O)CN2CCN(CC(=O)[O-])CCN(CC(=O)[O-])CCN(CC(=O)[O-])CC2)CC(O)C(O)C(O)C(O)CO)CCN(CC(=O)[O-])CC1.[Gd+3].[Gd+3] (centres unmarked) — relaxivity (human plasma; 310 K, 1.41 T field): 10.8 ± 0.2 mM⁻¹ s⁻¹
CN1CCC[C@]1(C)/C=C/S(=O)(=O)NC(=O)Nc1c2c(cc3c1CCC3)CCC2 — IL-18 inhibition (human, whole blood ex vivo; 12.5 mg twice daily, day 14, 6 h, multiple ascending dose, together with: LPS and ATP): 103%
CCC(=O)N[C@@H](C)C(=O)OCC(=O)N[C@@H](C)C(=O)O — chain scission rate constant (water; pH 3, 50 °C): 0.003 h⁻¹
COc1cc(O)ccc1CCC(c1ccc(O)cc1)c1cc2c(c(C)c1O)OC(c1ccc(O)cc1)CC2 (mixture of isomers) — amount (refers to: 4-HDHA; human whole blood; 0.3 µM, together with: Escherichia coli): 86 ± 35 pg/mL blood
O=[N+]([O-])[O-].O=c1c(C=NN=C([S-])Nc2ccccc2)coc2ccccc12.[Cu+2].c1ccc(-c2ccccn2)nc1 — supercoiled DNA form (DNA cleavage; supercoiled pUC19 DNA; 100 µM, 4 h, 37 °C, no reducing agent, together with: DNA 40 µM): 90%
Cc1cccc(C)c1CNc1cc(C(=O)N2CCC2)cn2c(C)c(C)nc12 — gastric lesion area (rat, indomethacin-induced ulcer; oral, 2 mg/kg, 6 h, together with: indomethacin 40 mg/kg): 4.7 ± 3 mm²
NC[C@@H](C(=O)Nc1ccc(-c2cn[nH]c2)cc1)c1ccccc1 — IOP (tonometry; Macaca cyclopis, ocular normotensive; ocular, 0.1%, 52 h): 15.6 mmHg
CC(=O)[O-].O.[Cu+2].[O-]c1ccc(Br)cc1C=NCCN1CCOCC1 — ferric reducing power (FRAP; 40 µM): 11.2%
CC1Cc2ccccc2N1C(=O)CN1CCN(Cc2ccccc2)CC1 (centres unmarked) — locomotion (open field test; PC7-WT mice; 1 mg/kg; reference: vehicle): increased
CCCCCCCCCCCCCCCC(=O)OCC(CSC[C@H](N)C(=O)N[C@@H](CO)C(=O)N[C@@H](CCCCN)C(=O)N[C@@H](CCCCN)C(=O)N[C@@H](CCCCN)C(=O)N[C@@H](CCCCN)C(=O)NCCCCCC(=O)N[C@@H](CCCCN)C(=O)N[C@@H](CC(C)C)C(=O)N[C@H](C(=O)N[C@@H](Cc1ccccc1)C(=O)N[C@@H](Cc1ccccc1)C(=O)N[C@@H](Cc1ccc2ccccc2c1)C(=O)O)C(C)C)OC(=O)CCCCCCCCCCCCCCC (some centres unmarked) — Iba1 level (APP/PS1 transgenic mouse, hippocampus; intrahippocampal, dose not given, 5 d, unit not given; reference: injected over adjacent side): 0.878 and 0.854 and 1.26 and 0.829 and 0.891
O=S(=O)(NCc1ccncc1)c1ccc(C2CCCCC2)cc1 — microglia population (CD11b FACS; CK-p25 mice, female, whole brain; intraperitoneal, 0.3 mg/kg daily for 2 weeks, 336 h): 1.8 ± 0.46%
COCC1CN(C2CCN(c3cc(OC)c(Nc4ncc(Br)c(Nc5ccc6c(c5P(C)(C)=O)OCCO6)n4)cc3C)CC2)C1 — partial response (RECIST 1.1; advanced EGFR-mutant NSCLC patients; 30 mg once daily): 0%
COCCOCCOCCNC(=O)Cc1cc(CC(=O)N[C@H]2C[C@H]3C(=O)Nc4cc(OCCOCCOCCOC)cc(n4)C(=O)N4CCC[C@H]4C(=O)Nc4cc(OCCOCCOCCOC)cc(n4)C(=O)N4CCC[C@H]4C(=O)Nc4cc(OCCOCCOCCOC)cc(n4)C(=O)N3C2)cc(CC(=O)N[C@H]2C[C@H]3C(=O)Nc4cc(OCCOCCOCCOC)cc(n4)C(=O)N4CCC[C@H]4C(=O)Nc4cc(OCCOCCOCCOC)cc(n4)C(=O)N4CCC[C@H]4C(=O)Nc4cc(OCCOCCOCCOC)cc(n4)C(=O)N3C2)c1 — ΔH (anion binding, ITC; water/methanol 70 vol% (84.0 mol%); 298 K, together with: sodium sulfate): -8.8 ± 0.1 kJ/mol
COC1CN([C@H]2CC[C@H]([C@@]3(C)Oc4c(Cl)cc(C(=O)NCc5c(SC)cc(C)[nH]c5=O)c(C)c4O3)CC2)C1 — log2 fold change (RNA-seq, refers to: F5; human cancer patients, whole blood; dose not given, 24 h, PRC2 target gene; reference: pretreatment sample): 1.82
COc1c(Cl)cccc1Nc1c(-c2ccncc2C#C[C@@]2(C)CCCN2C(=O)/C=C/CN(C)C)[nH]c2c1C(=O)NCC2 — tumour growth inhibition (NCI-H2073 parental xenograft (EGFR wild-type), BALB/c nude mice; 50 mg/kg once daily, 21 days): 87.3%
COc1ccc(C(=O)CCc2cc(C(CCc3ccc(O)cc3OC)c3ccc(O)cc3)c(O)cc2OC)cc1 (racemic) — LTB4 level (human blood; 0.3 µM, together with: A23187): 2250 ± 908 pg/mL

Excerpt of the above:
COc1cc(O)ccc1CCC(c1ccc(O)cc1)c1cc2c(c(C)c1O)OC(c1ccc(O)cc1)CC2 (mixture of isomers) — amount (refers to: 4-HDHA; human whole blood; 0.3 µM, together with: Escherichia coli): 86 ± 35 pg/mL blood
